Experimental data from different studies.
Compare with care: the assays were run in different laboratories. Several values in a cell are separate wells, animals, samples, runs or records.
JAK1 JH2: Tyrosine-protein kinase JAK1, JH2 (JAK1, Homo sapiens, UniProt P23458)
JAK1 JH1: Tyrosine-protein kinase JAK1, JH1 (JAK1, Homo sapiens, UniProt P23458)
JAK1: Tyrosine-protein kinase JAK1 (JAK1, Homo sapiens, UniProt P23458)
JAK1 JH1 kinase domain: Tyrosine-protein kinase JAK1, JH1 kinase domain (JAK1, Homo sapiens, UniProt P23458)

The remaining binding of `Cc1c[nH]c2nccc(-c3ccc(C(=O)N[C@@H]4c5c(F)cc(C(F)F)cc5C[C@@H]4O)cn3)c12` is reported as 3.7% (JAK1 JH2; binding, competition with immobilised ligand; 3 µM).
`CNC1C[S+]2CC[S+]3CC[S+](C1)[Ru-4]321([N]=C=S)[n]2c3ccc(OC)cc3c3c4c(c5cc(F)c[n+]1c5c32)C(=O)NC4=O` (centres unmarked) has a remaining binding of 98% (Tyrosine-protein kinase JAK1, JH2 pseudokinase domain (JAK1, Homo sapiens, UniProt P23458); KinomeScan; 0.1 µM; reference: untreated).
With `CC(C)=CC1OC(C)(C)C2C=C3C(=O)C(Cl)=CC(O)C3C3C(O)C4OC4C(=O)C132` (centres unmarked) the remaining binding was 78% (JAK1 JH1; cell-free assay, competition with immobilised ligand; 10 µM).
`O=C(Cc1ccc(OCc2ccccc2)cc1)NC1(C(=O)O)CCN(C(=O)c2ccc(-c3cccc(Cl)c3)cc2)CC1` — result for “activity vs control”: 107% (JAK1 JH1; enzyme activity, inhibitor; 10 µM).
`CN1CCN(Cc2ccc(-c3ccc(CO[C@H]4CCC[C@@H]4NC(=O)c4cc(-c5cnn(C)c5)cnc4N)cc3)cc2)CC1` gave an inhibition of -10% (JAK1; enzyme activity, inhibitor; 0.1 µM).
`CN1CC[C@@H](COc2cnc(C#N)cc2-c2ccn3nc(NC(=O)C4CC4)cc3c2)C1` has an inhibition of 12% (JAK1; enzyme activity, inhibitor; 1 µM).
`O=C(Nc1ccc(Oc2ncnc3[nH]cc(-c4ccccc4)c23)c(F)c1)c1c2n(n(-c3cc(F)ccc3F)c1=O)CCCC2` gave an inhibition of 15% (JAK1; enzyme activity, inhibitor; 0.5 µM).
The inhibition of `Cc1cccc(O[C@H]2CCC[C@@H](C(C)CNCc3ccncc3)C2)c1` (relative stereo) is reported as -5% (JAK1; kinase activity, kinome panel screening; 10 µM).
`CS(=O)(=O)Nc1cccc(-c2csc3cnc(Nc4ccc(N5CCN(CCCCCOc6cccc7c6C(=O)N(C6CCC(=O)NC6=O)C7=O)CC5)cc4)nc23)c1` (centres unmarked) gave an inhibition of 94.3% (JAK1 JH1 kinase domain; probe labelling, inhibitor, KiNativ chemoproteomics; MOLT-4; 1 µM).
`Nc1ncc2c(n1)-c1c([nH]c3ccc(C4=CCOCC4)cc13)CCC2` gave a remaining binding of 90% (JAK1 JH1; binding, competition with immobilised ligand; 1 µM).
The remaining activity of `COc1ccc(NC(=O)Nc2ccc3c(c2)C(=O)N(C(C)CO)CC(C)C(CN(C)Cc2ccc4c(c2)OCO4)O3)cc1` (centres unmarked) is reported as 95% (JAK1; kinase activity, KinaseProfiler; 0.03 µM, species human; reference: control).
`CCn1cc(C(=O)O)c(=O)c2c(N)c(F)c(NC3CCCCC3)cc21` gave an inhibition of 4% (Tyrosine-protein kinase JAK1, JH1-JH2 domains (JAK1, Homo sapiens, UniProt P23458); kinase activity; 0.1 µM, together with: ATP at Km).
With `CNC(=O)C1CCN(c2cc(C)c(F)cc2NC(=O)c2ccc(-c3cc(O)ccc3C)c(C)c2)CC1` the remaining binding was 100% (JAK1 JH2; binding, competition with immobilised ligand; 1 µM).
`C=CC(=O)Nc1cccc(-c2cnc3[nH]cc(C(=O)NC(C)(C)C)c3n2)c1` has an inhibition of 4% (JAK1; enzyme activity, inhibitor; 0.1 µM).
For `C=CC(=O)N1CCCC(n2c(=O)c3ncccc3n(Cc3ccc(Oc4ccccc4)cc3)c2=O)C1` (centres unmarked), the remaining binding was 96% (JAK1 JH1; cell-free assay, competition with immobilised ligand; 1 µM).
With `Cc1cnc2nc1Nc1cccc(c1)COC/C=C/COCc1cc(ccc1OCCN1CCOCC1)N2` the remaining signal was 58% (JAK1 JH2; cell-free assay; 0.1 µM).
Under “log2 LFQ intensity”, `N[C@H]1CC[C@H](Nc2nccc(-c3cccnc3Oc3ccc(NC(=O)NC4CC4)c4ccccc34)n2)CC1` is recorded as 22 and 22.1 and 21.9 (JAK1; kinobead competition pulldown; HEK293/HCT116 lysate mixture; 10 µM, 1 h, 4 °C; lower = stronger competition).
`NC(=O)C[C@H]1CCc2sc3ncnc(O[C@H]4CC[C@H](N5CCOCC5)CC4)c3c21` has an inhibition of -8% (JAK1; enzyme activity, inhibitor; 10 µM).
With `COc1c(Cl)cccc1Nc1c(-c2ccncc2C#C[C@@]2(C)CCCN2C(=O)/C=C/CN(C)C)[nH]c2c1C(=O)NCC2` the remaining binding was 100% (JAK1 JH1; cell-free assay, competition with immobilised ligand; 3 µM).
For `CCN1CCN(Cc2ccc(C(=O)Nc3ccc(C)c(NCc4cnc5[nH]ccc5c4OC)c3)cc2C(F)(F)F)CC1`, the remaining binding was 66% (JAK1 JH1; binding, competition with immobilised ligand; 1 µM).
For `Cc1[nH]nc2c1N=C(c1ccccc1Cl)c1cnc(N3CCOCC3)cc1N2`, the inhibition was 97.6% (JAK1; enzyme activity, inhibitor; 0.5 µM).
For `COc1cc(Nc2nccc(-c3cnn4nc(OC)ccc34)n2)cc(C(F)(F)F)c1`, the remaining binding was 85% (JAK1 JH2; binding, competition with immobilised ligand; 1 µM).
`C=CC(=O)N1CCc2ccc(-n3c(=O)ccc4cnc5ccc(-c6cnn(C)c6)cc5c43)cc21` has a remaining binding of 97% (JAK1 JH1 kinase domain; KINOMEscan; 1 µM; reference: DMSO control).

Some of these lines once more:
`CS(=O)(=O)Nc1cccc(-c2csc3cnc(Nc4ccc(N5CCN(CCCCCOc6cccc7c6C(=O)N(C6CCC(=O)NC6=O)C7=O)CC5)cc4)nc23)c1` (centres unmarked) gave an inhibition of 94.3% (JAK1 JH1 kinase domain; probe labelling, inhibitor, KiNativ chemoproteomics; MOLT-4; 1 µM).
`Nc1ncc2c(n1)-c1c([nH]c3ccc(C4=CCOCC4)cc13)CCC2` gave a remaining binding of 90% (JAK1 JH1; binding, competition with immobilised ligand; 1 µM).
